Experimental data collected from several papers.
Numbered parts are unrelated; each lists some results of a single study.
Chain of UniProt P25098 (whole entry, looked up): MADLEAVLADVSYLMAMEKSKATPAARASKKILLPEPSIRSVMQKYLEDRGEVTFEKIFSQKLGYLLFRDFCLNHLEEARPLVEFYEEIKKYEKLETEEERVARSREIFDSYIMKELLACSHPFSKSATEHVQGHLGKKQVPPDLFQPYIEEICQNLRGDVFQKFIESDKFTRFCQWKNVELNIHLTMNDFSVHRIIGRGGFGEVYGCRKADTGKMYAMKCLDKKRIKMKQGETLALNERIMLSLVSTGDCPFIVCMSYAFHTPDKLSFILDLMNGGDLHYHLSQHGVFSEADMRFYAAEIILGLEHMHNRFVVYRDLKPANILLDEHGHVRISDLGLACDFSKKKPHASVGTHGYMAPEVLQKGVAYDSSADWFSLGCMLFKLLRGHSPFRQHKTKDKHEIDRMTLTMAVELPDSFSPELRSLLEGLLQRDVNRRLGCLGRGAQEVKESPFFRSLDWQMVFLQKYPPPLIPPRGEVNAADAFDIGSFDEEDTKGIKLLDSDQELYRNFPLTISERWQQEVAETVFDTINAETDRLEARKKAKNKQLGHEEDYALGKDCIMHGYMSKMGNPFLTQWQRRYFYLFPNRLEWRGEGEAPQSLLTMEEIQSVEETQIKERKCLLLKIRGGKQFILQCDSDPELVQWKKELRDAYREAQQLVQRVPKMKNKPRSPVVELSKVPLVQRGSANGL
Chain of UniProt Q9H4B4 (whole entry, looked up): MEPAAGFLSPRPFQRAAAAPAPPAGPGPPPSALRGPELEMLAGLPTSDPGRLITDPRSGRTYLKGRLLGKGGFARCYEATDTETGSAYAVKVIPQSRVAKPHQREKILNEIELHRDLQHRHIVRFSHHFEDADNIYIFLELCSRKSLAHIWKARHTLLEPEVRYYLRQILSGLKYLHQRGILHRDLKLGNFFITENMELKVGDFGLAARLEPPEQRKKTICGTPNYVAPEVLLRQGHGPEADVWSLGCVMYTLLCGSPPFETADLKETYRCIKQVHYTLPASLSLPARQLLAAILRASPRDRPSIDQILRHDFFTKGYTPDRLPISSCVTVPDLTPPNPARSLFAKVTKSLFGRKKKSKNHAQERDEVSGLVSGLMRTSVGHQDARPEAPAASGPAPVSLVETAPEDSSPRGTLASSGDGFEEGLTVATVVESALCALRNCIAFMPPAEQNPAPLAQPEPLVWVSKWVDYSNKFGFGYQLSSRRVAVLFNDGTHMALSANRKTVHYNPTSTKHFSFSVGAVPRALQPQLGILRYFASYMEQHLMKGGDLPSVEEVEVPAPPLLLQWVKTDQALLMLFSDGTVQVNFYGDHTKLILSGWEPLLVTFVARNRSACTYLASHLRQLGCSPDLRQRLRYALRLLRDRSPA
Chain of UniProt Q6DT37 (whole entry, looked up): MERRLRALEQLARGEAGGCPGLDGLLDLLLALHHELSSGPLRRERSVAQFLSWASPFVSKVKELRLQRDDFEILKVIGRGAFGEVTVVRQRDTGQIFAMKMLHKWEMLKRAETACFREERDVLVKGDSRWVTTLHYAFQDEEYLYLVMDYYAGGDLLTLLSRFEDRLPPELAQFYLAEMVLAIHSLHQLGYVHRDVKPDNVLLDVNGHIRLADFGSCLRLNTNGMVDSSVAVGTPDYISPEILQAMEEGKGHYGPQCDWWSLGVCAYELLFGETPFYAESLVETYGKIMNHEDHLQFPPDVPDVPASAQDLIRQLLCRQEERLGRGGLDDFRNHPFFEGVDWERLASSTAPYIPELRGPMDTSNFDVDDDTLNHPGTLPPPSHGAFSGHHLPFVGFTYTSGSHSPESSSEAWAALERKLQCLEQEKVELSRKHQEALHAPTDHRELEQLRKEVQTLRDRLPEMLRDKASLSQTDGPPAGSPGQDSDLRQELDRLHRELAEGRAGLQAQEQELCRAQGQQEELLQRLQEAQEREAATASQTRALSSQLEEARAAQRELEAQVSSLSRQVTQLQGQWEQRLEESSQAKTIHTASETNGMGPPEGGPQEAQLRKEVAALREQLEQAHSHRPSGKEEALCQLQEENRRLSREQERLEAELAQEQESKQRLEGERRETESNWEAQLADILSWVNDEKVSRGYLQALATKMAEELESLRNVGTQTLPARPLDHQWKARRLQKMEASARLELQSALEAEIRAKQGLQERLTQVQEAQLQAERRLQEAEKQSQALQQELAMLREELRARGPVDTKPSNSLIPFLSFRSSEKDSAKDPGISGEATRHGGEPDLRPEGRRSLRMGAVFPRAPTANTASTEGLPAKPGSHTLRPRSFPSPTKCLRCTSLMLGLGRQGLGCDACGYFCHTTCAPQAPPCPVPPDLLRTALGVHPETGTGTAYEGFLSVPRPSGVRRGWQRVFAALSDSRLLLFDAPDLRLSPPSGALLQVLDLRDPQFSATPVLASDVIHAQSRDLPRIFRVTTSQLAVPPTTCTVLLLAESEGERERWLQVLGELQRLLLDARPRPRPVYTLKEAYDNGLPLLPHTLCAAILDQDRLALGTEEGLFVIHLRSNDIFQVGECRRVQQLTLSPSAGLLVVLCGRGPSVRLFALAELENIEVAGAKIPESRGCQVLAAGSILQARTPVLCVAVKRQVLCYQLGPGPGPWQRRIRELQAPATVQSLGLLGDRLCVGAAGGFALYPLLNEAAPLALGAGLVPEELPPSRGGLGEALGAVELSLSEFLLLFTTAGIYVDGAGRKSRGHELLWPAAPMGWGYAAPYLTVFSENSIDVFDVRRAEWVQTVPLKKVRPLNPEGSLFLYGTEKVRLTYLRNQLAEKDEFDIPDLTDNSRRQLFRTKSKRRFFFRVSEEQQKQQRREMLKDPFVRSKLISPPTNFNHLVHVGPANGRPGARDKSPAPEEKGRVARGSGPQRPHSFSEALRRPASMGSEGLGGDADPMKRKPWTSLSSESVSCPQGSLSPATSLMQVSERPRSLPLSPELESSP
Chain of UniProt P46098 (whole entry, looked up): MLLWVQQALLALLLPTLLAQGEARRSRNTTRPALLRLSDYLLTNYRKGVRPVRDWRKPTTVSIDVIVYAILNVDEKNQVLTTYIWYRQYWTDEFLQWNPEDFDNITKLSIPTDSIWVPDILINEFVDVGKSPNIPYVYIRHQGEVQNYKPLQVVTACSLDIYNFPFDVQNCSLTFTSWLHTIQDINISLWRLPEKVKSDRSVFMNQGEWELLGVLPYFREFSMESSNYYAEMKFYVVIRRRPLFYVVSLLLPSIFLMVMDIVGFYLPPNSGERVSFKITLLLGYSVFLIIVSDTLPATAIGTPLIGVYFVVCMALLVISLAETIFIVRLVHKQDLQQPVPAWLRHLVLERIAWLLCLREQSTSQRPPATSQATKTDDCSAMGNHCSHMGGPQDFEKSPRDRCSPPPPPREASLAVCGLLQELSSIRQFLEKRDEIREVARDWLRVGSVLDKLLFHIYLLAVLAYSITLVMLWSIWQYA
Chain of UniProt Q15208 (whole entry, looked up): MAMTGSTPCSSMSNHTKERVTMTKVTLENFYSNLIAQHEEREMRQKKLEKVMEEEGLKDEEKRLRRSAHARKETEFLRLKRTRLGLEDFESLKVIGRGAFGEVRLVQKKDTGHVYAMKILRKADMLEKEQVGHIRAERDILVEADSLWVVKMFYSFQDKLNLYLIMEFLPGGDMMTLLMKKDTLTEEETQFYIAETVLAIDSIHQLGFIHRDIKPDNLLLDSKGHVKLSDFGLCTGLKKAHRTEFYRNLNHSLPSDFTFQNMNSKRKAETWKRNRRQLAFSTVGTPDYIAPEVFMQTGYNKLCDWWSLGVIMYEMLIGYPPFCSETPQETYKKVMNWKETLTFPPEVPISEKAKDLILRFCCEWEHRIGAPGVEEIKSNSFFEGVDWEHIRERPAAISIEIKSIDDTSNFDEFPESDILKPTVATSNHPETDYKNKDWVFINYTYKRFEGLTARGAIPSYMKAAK

Block 1
Structure (SMILES): O=C(Nc1cnn(-c2csc(C(=O)NC3COC3)c2)c1)Nc1ccccc1Cl
Observed: enzyme activity
Tested at: 5 µM
Reference: untreated control
target	remaining activity [%]
FGFR4 (Homo sapiens, UniProt P22455)	88
STK38 (Homo sapiens, UniProt Q15208)	98.5
GRK2 (Homo sapiens, UniProt P25098)	96
STK10 (Homo sapiens, UniProt O94804)	87
PLK3 (Homo sapiens, UniProt Q9H4B4)	93.6
CDC42BPG (Homo sapiens, UniProt Q6DT37)	85.5
LATS2 (Homo sapiens, UniProt Q9NRM7)	92.7
IGF1R (Homo sapiens, UniProt P08069)	94.9

Block 2
Target: Calcium/calmodulin-dependent protein kinase type II subunit alpha (CAMK2A, Homo sapiens, UniProt Q9UQM7)
Chain of UniProt Q9UQM7 (whole entry, looked up): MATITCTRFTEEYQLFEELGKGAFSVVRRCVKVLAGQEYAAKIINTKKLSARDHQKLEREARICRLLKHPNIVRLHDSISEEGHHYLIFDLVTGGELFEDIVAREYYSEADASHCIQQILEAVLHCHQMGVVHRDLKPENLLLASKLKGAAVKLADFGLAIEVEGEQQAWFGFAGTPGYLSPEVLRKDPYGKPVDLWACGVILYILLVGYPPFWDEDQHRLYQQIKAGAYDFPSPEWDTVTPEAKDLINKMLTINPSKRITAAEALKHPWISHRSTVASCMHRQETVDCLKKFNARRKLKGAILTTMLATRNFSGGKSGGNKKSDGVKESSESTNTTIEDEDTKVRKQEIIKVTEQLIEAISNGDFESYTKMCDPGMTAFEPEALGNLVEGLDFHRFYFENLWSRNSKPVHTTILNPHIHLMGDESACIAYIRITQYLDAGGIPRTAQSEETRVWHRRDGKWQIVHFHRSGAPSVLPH
Observed: enzyme activity
Action: inhibitor
Tested at: 10 µM
Compound	inhibition
CCCc1nc(C)c2c(O)nc(-c3cc(S(=O)(=O)N4CCN(CC)CC4)ccc3OCC)nn12	-8%
COc1cc2oc(-c3ccc(O)cc3)cc(=O)c2c(O)c1[C@@H]1O[C@H](CO)[C@@H](O)[C@H](O)[C@H]1O[C@@H]1O[C@H](CO)[C@@H](O)[C@H](O)[C@H]1O	12%
O=c1c(O)c(-c2ccc(O)c(O)c2)oc2cc(O[C@@H]3O[C@H](CO)[C@@H](O)[C@H](O)[C@H]3O)c(O)c(O)c12	-37%
COc1ccc2c(c1)c(CC(=O)OCC(=O)O)c(C)n2C(=O)c1ccc(Cl)cc1	3%
COc1cc(O[C@@H]2O[C@H](CO)[C@@H](O)[C@H](O)[C@H]2O)c2c(O)c(C(C)=O)c(C)cc2c1	6%
CCCCCCCCCCCCCCCCC(C(=O)O)C(O)(CC(=O)O)C(=O)O (centres unmarked)	-40%

Block 3
Target: Tyrosine-protein kinase Blk (BLK, Homo sapiens, UniProt P51451)
Chain of UniProt P51451 (whole entry, looked up): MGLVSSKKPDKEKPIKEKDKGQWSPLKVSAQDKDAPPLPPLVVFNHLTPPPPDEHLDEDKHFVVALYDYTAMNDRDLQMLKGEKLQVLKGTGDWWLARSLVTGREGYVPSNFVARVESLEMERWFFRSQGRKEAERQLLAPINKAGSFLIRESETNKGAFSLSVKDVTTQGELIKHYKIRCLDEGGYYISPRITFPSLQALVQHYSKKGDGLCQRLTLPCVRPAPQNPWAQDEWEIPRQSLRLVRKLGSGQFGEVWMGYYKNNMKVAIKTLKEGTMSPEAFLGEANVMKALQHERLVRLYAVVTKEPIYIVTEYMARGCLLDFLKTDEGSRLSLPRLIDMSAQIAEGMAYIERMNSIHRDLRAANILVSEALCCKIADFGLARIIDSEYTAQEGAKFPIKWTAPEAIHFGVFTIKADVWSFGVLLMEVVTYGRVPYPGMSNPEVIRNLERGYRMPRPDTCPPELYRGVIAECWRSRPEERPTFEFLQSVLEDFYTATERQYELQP
Observed: enzyme activity
Action: inhibitor
Tested at: 0.5 µM
Reference: control
SMILES	remaining activity [%]
O=c1c2ccccc2[nH]c(=S)n1CCN1CCC(=C(c2ccc(F)cc2)c2ccc(F)cc2)CC1	102
OCC(O)CCON=C1C(c2c(O)[nH]c3ccccc23)=Nc2ccccc21 (centres unmarked)	39.1
Oc1ccc(-c2nc(-c3ccncc3)c(-c3ccc(F)cc3)[nH]2)cc1	101
O=C(O)c1ccc2c3c1cccc3c(=O)n1c3ccccc3nc21	100
Cc1ccc(Nc2nccc(N(C)c3ccc4c(C)n(C)nc4c3)n2)cc1S(N)(=O)=O	75.6
O=C1NC(=O)C(c2cn(CCCO)c3ncccc23)=C1c1cnccn1	87.1
O=C(CCCc1ccc(-c2ccccc2F)cc1)Nc1ccc(O)cc1	101
C#Cc1cccc(Nc2ncnc3cc(OCCOC)c(OCCOC)cc23)c1	79.4
N#CC(C#N)=C(N)/C(C#N)=C/c1ccc(O)cc1	101
Nc1[nH]nc2nc3ccccc3nc12	96.6
CN(C)c1ccc(C=C2C(=O)Nc3ccccc32)cc1	99.2
O=C(Nc1cccc(Nc2cc(Nc3cccc(C(F)(F)F)c3)ncn2)c1)C1CC1	101
Nc1ncnc2n[nH]c(Nc3ccc(F)cc3)c12	101
O=C1NC(=O)C(c2cn(CCCn3ccnc3)c3ccccc23)=C1Nc1ccccc1	90.9

Mixed results
SMILES	target	observed	technique	tested at	measurement	value
Cc1nc(N2CC[C@@H](O)C2)ncc1-c1cc(C(F)(F)F)cc2[nH]ncc12	5-hydroxytryptamine receptor 3A (HTR3A, Homo sapiens, UniProt P46098)	binding	radioligand binding	10 µM	inhibition	6.06%
